Measured values gathered from unrelated publications.
Every numbered part comes from another study and shows a few of its results, in no order.

Set 1
Target: Fragile X messenger ribonucleoprotein 1, C-terminal low-complexity region (Fmr1, Mus musculus, UniProt P35922)
Method: RNA Bind-n-Seq
Molecule type: RNA
Medium: in vitro
Concentration: 200 nM
Setting: whole 134-nt RNA, ends assumed
With: 150 mM KCl
Reference: input library
Direction: higher = stronger binding
Sequence	log2 enrichment
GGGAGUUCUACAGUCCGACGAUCUGGGAGGUGGAUUUUGUUUAUUUUUUUAGCUCAUUUCCAGGGGAGGGAAUUUUUUUUUAAUAUGUGUCAUGAAUAAAGUUGUUUUUGAAAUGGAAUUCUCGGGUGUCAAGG	0.267
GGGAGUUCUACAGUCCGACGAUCGUCCUGUGCUACACAUCGUAUGUACCGAAUCGGUUUUUGGGUUUUUGGGGUUUUUGGGGAAAGUAUUAUGUUACGCCGUUCGGAUCUGCAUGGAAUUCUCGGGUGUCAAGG	-0.0518
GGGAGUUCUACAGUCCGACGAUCGCAGGAAGUAAAAACAAAUGGAAAUGCUUCGGAUAGUGGUAGGGGUGGGGGUUGCUAAGGAAAGGGUGGGAUGGGAGUGGGUAAAGAGUUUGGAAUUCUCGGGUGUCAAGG	0.207
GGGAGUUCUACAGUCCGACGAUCAGUCCUGUGCUACACAUCGUAUGUACCGAAUCAAAGUGUGUGUGUGUGUGUGUGUAAAAAAGUAUUAUGUUACGCCGUUCGGAUCUGCACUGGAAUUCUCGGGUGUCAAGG	0.101
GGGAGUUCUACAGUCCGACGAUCCCUCAAGUCCUGUGCUACACAUCGUAUGUACCGAAUCGGGCGGGGCGGGGCGGAAAGUAUUAUGUUACGCCGUUCGGAUCUGCACUUCCAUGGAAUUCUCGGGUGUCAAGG	0.527
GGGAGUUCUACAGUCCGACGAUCUAACUUUAGAGGAGGAUCUGAUUGAUAUGGCAGUGGACGUGGAUUUGGGGAUGGCUAUAAUGGGUAUGGAGGAGGACCUGGAGGUGGCAAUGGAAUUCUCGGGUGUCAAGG	0.356
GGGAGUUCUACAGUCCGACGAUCUCAAGUCCUGUGCUACACAUCGUAUGUACCGAAUCGGUGGAAAGGAAAAAAAGGAAAGUAUUAUGUUACGCCGUUCGGAUCUGCACUUCCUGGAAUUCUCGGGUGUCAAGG	-0.513
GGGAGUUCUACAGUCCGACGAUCCUCAAGUCCUGUGCUACACAUCGUAUGUACCGAAUCGGGUGGGGUGGGUGGGGAAAGUAUUAUGUUACGCCGUUCGGAUCUGCACUUCCAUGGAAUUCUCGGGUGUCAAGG	1.02
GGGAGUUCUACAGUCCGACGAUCUUUGCAGAGCAGUCUCUGAUGAAGAAUGCCAUAAAAACAUCGGAGGAGUCAUGGAUUGAACAGCAGAUGCUAGAAGACAAGAAACGGGCCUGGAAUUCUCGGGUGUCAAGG	-1.4
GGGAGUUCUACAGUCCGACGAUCCACAGACAACACGCACCCACACAGACACAGAGGGAAGGGGUUAAAAUGGGGACAGGGUGCACAGCAGGGCGGGGUAGGACCCCAGCCCCUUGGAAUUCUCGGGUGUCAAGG	0.593

Set 2
Target: Sal-like protein 4, full length isoform A (SALL4, Homo sapiens, UniProt Q9UJQ4, residues 1-1053)
UniProt Q9UJQ4, sequence (whole entry, looked up): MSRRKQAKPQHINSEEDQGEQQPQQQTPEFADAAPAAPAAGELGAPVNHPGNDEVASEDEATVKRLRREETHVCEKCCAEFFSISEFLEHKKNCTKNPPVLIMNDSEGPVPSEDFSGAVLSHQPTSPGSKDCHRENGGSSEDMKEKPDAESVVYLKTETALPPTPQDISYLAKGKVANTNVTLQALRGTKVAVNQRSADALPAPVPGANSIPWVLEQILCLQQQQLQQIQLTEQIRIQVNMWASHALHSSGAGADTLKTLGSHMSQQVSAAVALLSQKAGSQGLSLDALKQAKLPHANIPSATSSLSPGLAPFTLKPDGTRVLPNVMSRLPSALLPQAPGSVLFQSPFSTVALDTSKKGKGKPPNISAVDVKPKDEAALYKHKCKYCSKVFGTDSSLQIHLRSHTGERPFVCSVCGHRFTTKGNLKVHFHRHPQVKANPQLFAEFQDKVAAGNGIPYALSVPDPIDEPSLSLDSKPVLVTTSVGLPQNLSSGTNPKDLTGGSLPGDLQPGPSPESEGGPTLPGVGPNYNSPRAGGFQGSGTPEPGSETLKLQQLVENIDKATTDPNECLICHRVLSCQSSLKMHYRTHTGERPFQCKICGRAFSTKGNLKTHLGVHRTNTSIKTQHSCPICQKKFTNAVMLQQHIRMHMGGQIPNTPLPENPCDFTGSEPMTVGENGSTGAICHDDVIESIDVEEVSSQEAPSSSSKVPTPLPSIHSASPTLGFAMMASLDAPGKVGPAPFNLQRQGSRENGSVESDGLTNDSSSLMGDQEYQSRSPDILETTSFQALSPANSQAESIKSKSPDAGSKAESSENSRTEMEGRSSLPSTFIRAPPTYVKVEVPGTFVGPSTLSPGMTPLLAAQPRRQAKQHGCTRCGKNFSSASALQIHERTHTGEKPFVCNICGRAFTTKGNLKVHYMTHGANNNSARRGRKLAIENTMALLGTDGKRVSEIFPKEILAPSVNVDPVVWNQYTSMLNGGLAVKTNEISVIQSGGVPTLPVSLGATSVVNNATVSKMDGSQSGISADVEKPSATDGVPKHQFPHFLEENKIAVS
Method: universal PBM
Molecule type: double-stranded DNA, one strand shown
Medium: in vitro
Concentration: 600 nM
Setting: 8-mer, flanks averaged, mean of replicates
Direction: higher = stronger binding
Sequence	E-score
ATGCCCGA	-0.188
AGTACCAG	-0.16
AAAGAAGT	0.122
ATAGGGCG	-0.0491
CTACGGAA	0.0431
CCGAATCA	0.0306
ACCAGAAC	-0.0982
CATCGTAG	-0.145
GTGCGCAA	-0.156
GAATTCTC	0.02
AAAGGGTG	-0.0484
ATTAAGTA	0.25
ATTGTTAC	0.307
ACCGCTCG	-0.168
TAACGTTA	0.22
TGGCCACA	-0.212
CTAGAAAC	0.0404
CATTTGGC	0.00981

Set 3
Target: RNA binding protein fox-1 homolog 2, RRM domain, GST-SBP tag (RBFOX2, Homo sapiens, UniProt O43251-10, residues 100-194)
Method: RNA Bind-n-Seq
Molecule type: RNA
Medium: in vitro
Concentration: 365 nM
Setting: natural RNA segment, single round, ends assumed
Reference: no-protein control
Direction: higher = stronger binding
Construct (chain): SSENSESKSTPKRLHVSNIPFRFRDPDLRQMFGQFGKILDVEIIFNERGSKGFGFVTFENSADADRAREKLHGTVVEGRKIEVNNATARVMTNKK
Sequence	RBNS enrichment (R)
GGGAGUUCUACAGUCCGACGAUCAGAGGGAGUGAAGAGCCUGCCCUCCUAUAUGGAUUCUUCAGGGCCCUCCACAUCUGAGGUGGCUCAUUCCCAUCACACACAGAUUGUCCUGGUGUUCAUUUCAAGGCCAGUGGAAUUCUCGGGUGCCAA	0.459
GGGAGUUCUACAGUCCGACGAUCAGCCUCCCAAGCAACACACUAUGGGGGAGAGGGGGUGUCAAGAAACUCCAGCUCACACAUCUACCCAAGAUGCUUGGGGUUCUCUUUUUUCAUCUGAUUAUGUUAGGCCCUGGAAUUCUCGGGUGCCAA	0.391
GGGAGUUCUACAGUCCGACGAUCAAUAUGUCCCUUGCACACCACCCCUGAAGCACAUGGCAGUAGGAAACAGCAUAGGAUUGUAUGUGGGAGGUGGAUAGGUCGGUGAUGUGUGGAGCGGAAAAGCAGGUUGGUGGAAUUCUCGGGUGCCAA	1.9
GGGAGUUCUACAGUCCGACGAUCGAGGCUUUGGGGUUUGUUUUUGUUUUCAUUUUUGUUCCCUCCCAUCCCUAACAUUUUUUUCCCCAAACUUGGGUCUGGAUGUAGAUUCUCACCCUAUGGCCUGAGUCCAAUGGAAUUCUCGGGUGCCAA	1.13
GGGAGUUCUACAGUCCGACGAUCAGUUUCAAGCAUUCCAAAUAAAUUAUCAAUGUUUCAUAACUUUUUAUUAUAAACCCACCUCCUAAUAGGAAGCCAAGUACUAUUUGAUACAGUGGUAAAAACCAAACUACUGGAAUUCUCGGGUGCCAA	0.432
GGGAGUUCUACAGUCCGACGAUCUCUUUAAUGUACUGGAAAAAGCCUAUGUGAAUCUGUUGAUAGAAUUUAAAAUUCCAGGCCGGGCGUGGUGGCUCACGACUGUAAUCCCAGAACUUUGGGAGGCCAAGGCAUGGAAUUCUCGGGUGCCAA	1.12
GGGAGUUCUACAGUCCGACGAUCAUAAGUUCCUUUCCUUUUCUUUAAAGAAGUUGAAGUUUAGGAAUCCUUUGGUGCCAACUGGUGUUUGAAAGUAGGGACCUCAGAGGUUUACCUAGAGAACAGGUGGUUUUUGGAAUUCUCGGGUGCCAA	0.412
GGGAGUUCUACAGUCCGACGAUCCUCGGUCCUGAGUUCAAUUCCCAGCAACCACAUGGUGGCUCAUAGCCAUCUGUAAUGGGAUUUGGUGCCCUCUUCUGGUGUGUCUGAAAACAGCUACAGCAUACCCAUAUUGGAAUUCUCGGGUGCCAA	0.195
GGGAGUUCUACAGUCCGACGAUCUUUUAGGAGGUGUGCAUGGAUGCAAUAUAUGAAAAUGGGACAUUCUGGAACUGCUGGUCAGGGGACUUUGUCGCCCUGUGCACUAAAGGGCCAGAUUUUCAGCAGCCAAGUGGAAUUCUCGGGUGCCAA	0.779
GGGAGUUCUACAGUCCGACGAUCUGUUGUACAAAAUAGUAAUGAUAGCCAUGGAAGUUUUACCUUAUUCUGUGAGAAGUGUUCUUAAACUUAUUAAGUGUCUAAACUAAGGUUUAGUGCUUUUUUAAAGGAAAUGGAAUUCUCGGGUGCCAA	0.572
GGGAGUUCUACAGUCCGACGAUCUGGUUAUUUGGAUUGCUUGCUUCCCUUUUUCCACCUGGGACAUUGUAAUCAUAAAAUAACAGUAAAUUCCAAACCUCAAAAACUAUUAUGGCCUGAGCACAGCUGAAAUCUGGAAUUCUCGGGUGCCAA	0.626
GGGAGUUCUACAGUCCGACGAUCGUAUUCUUUUUCAACAUGUAGGGCAAGAGGAUGAAGGAAGGGGCUAUCCUGGGACCUCCCCAGCCCAGGAAAAACUGGAAGCCUUCCCCCAGCAAGGCAGAAGCUUGGAGUGGAAUUCUCGGGUGCCAA	0.806

Set 4
Target: Histone acetyltransferase KAT6A, winged helix 1, GST fusion (KAT6A, Homo sapiens, UniProt Q92794, residues 1-85)
Method: protein binding microarray
Molecule type: double-stranded DNA, one strand shown
Medium: in vitro
Concentration: not given
Setting: 8-mer, flanks averaged, mean of 2 arrays, mostly near background
Reference: not given
Direction: higher = stronger binding
Target sequence (chain): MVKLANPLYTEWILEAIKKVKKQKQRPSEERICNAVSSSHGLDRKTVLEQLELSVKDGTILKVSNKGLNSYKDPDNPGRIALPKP
Sequence	E-score
AGCGTCTA	-0.0105
CGCAAACA	0.0203
AAAGTCGC	-0.0278
TCGCAGCA	-0.078
CGCTTGCC	0.292
GCTTCGAA	-0.0451
GAGCCAGA	-0.288
CCTGCTCC	-0.00699
GAAGGCGC	0.339
CCTCGTAA	-0.0274
CTTACAGC	-0.0518
CACAGTCA	-0.264
GCTAAGAA	-0.257
CGAGGTGA	-0.0534
AGTTGGTG	-0.117
AGAGGGAA	-0.245
GAACCATC	-0.0536
ACACTCTC	-0.0869
CGGTTAAA	0.056
CAAGTTCC	-0.038
ACAAAAAT	-0.188
CTCCACAG	-0.242
CTCTGGTA	-0.175

Further values, each from its own experiment
Substance	target	test	test system	setting	how to read	endpoint	result
PhoQ, residues 284 288 289 292 302 303 SLSLLA	PhoP, residues 12 14 15 18 19 AQALL (Escherichia coli, UniProt P23836)	Sort-seq, measured: YFP reporter	E. coli	PhoQ-PhoP variant library, with: 10 µM Mg2+	reference: high Mg2+ state, higher = stronger signaling	fold induction	8.42

Some of these lines once more (set 4):
Sequence	E-score
ACACTCTC	-0.0869
CCTGCTCC	-0.00699
CAAGTTCC	-0.038
GAAGGCGC	0.339
CTCCACAG	-0.242
CGGTTAAA	0.056
